Measured values gathered from unrelated publications.
A part holds a random share of what one study measured. Values joined by “and” are separate records of one study, mostly repeats; a detail may differ.
Sequence of UniProt P00519 (whole entry, unmodified, looked up): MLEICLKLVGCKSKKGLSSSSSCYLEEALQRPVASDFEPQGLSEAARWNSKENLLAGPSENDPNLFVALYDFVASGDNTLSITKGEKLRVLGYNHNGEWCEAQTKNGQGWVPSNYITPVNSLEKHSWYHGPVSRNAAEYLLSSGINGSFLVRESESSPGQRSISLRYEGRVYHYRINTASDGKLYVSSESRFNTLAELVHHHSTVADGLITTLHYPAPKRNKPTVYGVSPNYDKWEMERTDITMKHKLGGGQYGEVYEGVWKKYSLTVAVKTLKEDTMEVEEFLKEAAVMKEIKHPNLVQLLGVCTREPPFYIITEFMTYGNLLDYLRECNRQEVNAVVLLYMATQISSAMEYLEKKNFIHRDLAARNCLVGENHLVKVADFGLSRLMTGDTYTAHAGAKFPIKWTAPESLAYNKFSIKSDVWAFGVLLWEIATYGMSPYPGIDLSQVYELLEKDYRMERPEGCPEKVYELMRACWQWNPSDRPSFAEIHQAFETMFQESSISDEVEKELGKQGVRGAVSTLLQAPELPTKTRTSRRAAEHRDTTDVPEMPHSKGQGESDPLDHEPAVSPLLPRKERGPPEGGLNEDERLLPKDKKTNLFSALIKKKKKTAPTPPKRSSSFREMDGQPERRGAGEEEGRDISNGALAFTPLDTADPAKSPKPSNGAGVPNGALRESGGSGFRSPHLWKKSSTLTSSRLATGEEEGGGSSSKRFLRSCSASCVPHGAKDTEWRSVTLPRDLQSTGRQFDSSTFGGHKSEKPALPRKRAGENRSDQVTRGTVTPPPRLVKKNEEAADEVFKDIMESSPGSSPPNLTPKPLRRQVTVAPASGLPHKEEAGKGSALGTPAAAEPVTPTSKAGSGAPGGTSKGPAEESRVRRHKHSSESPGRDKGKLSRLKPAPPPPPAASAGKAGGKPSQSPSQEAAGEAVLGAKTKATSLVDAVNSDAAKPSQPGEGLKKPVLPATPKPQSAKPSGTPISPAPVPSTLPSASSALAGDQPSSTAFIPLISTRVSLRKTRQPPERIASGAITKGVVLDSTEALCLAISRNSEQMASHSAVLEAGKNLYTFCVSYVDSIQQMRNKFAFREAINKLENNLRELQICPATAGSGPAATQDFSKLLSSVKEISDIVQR
Sequence of UniProt Q16512 (whole entry, looked up): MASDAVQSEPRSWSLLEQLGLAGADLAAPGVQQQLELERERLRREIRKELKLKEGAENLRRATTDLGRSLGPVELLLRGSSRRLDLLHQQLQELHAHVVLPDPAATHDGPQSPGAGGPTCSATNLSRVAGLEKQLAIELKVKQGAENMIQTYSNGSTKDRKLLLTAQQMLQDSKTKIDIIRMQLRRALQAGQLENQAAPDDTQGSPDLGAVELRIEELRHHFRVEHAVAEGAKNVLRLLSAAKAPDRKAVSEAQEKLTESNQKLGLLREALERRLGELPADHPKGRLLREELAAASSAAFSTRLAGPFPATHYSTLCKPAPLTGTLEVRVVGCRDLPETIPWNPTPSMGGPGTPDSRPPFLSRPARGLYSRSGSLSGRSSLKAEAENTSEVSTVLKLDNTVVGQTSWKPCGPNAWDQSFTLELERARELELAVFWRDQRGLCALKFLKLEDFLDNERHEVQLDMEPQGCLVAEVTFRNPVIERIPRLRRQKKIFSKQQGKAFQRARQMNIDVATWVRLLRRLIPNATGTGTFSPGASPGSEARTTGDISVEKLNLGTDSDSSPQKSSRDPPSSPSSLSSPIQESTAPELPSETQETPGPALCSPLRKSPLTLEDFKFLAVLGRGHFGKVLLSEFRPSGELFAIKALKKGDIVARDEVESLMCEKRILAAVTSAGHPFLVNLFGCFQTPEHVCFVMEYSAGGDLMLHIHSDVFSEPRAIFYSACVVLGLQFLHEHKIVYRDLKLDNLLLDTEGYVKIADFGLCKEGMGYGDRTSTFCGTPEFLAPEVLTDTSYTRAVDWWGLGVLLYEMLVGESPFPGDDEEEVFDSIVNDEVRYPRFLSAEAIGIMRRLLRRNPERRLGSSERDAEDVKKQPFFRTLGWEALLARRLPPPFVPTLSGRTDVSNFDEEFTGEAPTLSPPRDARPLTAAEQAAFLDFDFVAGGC
Sequence of UniProt Q9HAZ1 (whole entry, looked up): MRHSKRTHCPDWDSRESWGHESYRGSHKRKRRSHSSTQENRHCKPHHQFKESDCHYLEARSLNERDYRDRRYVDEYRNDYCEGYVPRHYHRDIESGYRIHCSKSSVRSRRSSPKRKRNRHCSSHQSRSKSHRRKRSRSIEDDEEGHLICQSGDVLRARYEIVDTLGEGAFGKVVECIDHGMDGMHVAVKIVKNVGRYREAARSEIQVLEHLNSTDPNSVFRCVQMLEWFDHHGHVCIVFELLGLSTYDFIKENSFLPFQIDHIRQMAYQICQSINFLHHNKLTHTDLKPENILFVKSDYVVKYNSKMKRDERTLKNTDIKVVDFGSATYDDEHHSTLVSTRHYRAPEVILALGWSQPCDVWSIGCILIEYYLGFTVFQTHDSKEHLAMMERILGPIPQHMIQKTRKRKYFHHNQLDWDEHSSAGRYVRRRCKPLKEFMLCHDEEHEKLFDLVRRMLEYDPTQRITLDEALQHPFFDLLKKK
Sequence of UniProt Q6PHR2 (whole entry, looked up): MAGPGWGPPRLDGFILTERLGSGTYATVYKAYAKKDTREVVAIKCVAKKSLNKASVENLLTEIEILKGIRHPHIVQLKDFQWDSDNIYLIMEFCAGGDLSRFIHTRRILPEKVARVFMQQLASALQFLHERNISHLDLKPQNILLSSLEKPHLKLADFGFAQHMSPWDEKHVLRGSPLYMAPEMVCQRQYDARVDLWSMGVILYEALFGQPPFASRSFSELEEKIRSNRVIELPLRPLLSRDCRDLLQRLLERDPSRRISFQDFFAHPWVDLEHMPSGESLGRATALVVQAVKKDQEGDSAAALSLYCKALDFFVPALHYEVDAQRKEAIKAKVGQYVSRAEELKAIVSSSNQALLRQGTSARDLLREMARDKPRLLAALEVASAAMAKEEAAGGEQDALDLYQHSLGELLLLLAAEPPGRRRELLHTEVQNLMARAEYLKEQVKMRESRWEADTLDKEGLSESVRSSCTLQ
Sequence of UniProt Q16832 (whole entry, looked up): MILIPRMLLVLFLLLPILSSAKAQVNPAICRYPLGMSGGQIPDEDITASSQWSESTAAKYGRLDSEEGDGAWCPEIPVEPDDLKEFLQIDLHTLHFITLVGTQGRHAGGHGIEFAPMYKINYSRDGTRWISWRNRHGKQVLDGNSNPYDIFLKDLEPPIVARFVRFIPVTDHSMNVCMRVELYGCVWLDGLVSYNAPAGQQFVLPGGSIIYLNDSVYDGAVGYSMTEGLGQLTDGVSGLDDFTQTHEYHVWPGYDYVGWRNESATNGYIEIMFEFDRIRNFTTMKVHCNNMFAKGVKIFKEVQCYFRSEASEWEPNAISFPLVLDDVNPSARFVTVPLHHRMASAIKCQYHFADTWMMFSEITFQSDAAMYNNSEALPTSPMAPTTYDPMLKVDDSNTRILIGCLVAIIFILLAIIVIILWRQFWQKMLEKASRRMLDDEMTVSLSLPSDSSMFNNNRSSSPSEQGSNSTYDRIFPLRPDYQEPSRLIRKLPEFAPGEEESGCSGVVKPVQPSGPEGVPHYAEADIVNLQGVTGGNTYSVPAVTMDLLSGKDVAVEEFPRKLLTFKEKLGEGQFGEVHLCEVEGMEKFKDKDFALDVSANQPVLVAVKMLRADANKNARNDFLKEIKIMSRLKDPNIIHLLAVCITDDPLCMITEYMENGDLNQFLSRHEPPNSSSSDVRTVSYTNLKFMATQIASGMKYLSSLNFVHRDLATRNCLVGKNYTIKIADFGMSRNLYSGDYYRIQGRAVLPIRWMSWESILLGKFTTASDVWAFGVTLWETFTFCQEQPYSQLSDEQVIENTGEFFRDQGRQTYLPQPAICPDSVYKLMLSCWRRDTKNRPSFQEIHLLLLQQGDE

Block 1 — concentration: 1 µM; measurement: remaining binding
SMILES: COc1ccc2[nH]c3c4[nH]c5ccc(OC)cc5c4c4c(c3c2c1)C(=O)NC4=O
DDR2 (Homo sapiens, UniProt Q16832); binding, competition with immobilised ligand: 72%
MAPK12 (Homo sapiens, UniProt P53778); binding, competition with immobilised ligand: 70%
LIM domain kinase 2 (LIMK2, Homo sapiens, UniProt P53671); binding, competition with immobilised ligand: 81%
ABL1 (Homo sapiens, UniProt P00519, F317L): 75%
RET (Homo sapiens, UniProt P07949, V804M); binding: 21%
FGFR1 (Homo sapiens, UniProt P11362); binding, competition with immobilised ligand: 100%
MAPK10 (Homo sapiens, UniProt P53779); binding: 31%
PKN1 (Homo sapiens, UniProt Q16512); binding: 42%
BMPR1B (Homo sapiens, UniProt O00238); binding, competition with immobilised ligand: 56%
ULK3 (Homo sapiens, UniProt Q6PHR2); binding, competition with immobilised ligand: 43%
CLK4 (Homo sapiens, UniProt Q9HAZ1); binding: 57%

Block 2 — organism: Leishmania donovani; strain: DD8; measurement: inhibition
Compound: c1ccc(Oc2ccc(Nc3c4c(nc5ccccc35)CCC4)cc2)cc1
parasite viability, resazurin; promastigotes; 1.66 µM: 81% and 84% and 80%
parasite killing; intracellular amastigotes; 2 µM, 96 h: 85% and 84% and 86%
parasite killing; intracellular amastigotes; 0.08 µM, 96 h: 19% and 16%
parasite killing; intracellular amastigotes; 0.4 µM, 72 h: 48% and 47% and 41%
parasite killing; intracellular amastigotes; 8 µM, 24 h: 62% and 64% and 70%
parasite killing; intracellular amastigotes; 20 µM, 96 h: 100%
parasite killing; intracellular amastigotes; 0.2 µM, 96 h: 33% and 22% and 24%
parasite killing; promastigotes; 0.66 µM, 96 h: 59% and 52% and 60%
parasite killing; promastigotes; 3.33 µM, 72 h: 87% and 93% and 90%
parasite killing; intracellular amastigotes; 80 µM, 96 h: 100%
parasite killing; intracellular amastigotes; 20 µM, 48 h: 100%
parasite killing; promastigotes; 66.66 µM, 72 h: 100% and 99%

Block 3 — observed: enzyme activity; mode: inhibitor; concentration: 0.5 µM; reference: control; measurement: remaining activity
Target: TGF-beta receptor type-2 (TGFBR2, Homo sapiens, UniProt P37173)
Sequence of UniProt P37173 (whole entry, looked up): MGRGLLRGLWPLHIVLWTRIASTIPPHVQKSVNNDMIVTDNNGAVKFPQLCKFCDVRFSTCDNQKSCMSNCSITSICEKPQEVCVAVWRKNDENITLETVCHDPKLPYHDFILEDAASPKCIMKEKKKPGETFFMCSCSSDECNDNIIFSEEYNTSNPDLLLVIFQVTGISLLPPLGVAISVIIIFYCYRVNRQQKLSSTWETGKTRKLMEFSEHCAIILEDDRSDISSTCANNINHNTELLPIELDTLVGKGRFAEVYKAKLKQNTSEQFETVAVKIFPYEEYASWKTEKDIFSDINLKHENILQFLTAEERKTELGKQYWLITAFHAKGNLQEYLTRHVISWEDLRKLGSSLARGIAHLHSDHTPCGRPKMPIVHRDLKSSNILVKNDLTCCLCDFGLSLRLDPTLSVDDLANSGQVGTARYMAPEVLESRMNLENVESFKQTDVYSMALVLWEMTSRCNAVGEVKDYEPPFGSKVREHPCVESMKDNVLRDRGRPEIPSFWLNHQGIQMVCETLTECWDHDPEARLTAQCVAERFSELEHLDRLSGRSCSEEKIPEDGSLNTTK
Cc1nc2cc3nc(-c4cccs4)cnc3cc2n1C: 89.2%
O=C1C(Cl)=C(N2C(=O)CCC2=O)C(=O)c2ccccc21: 130%
Nc1cccc(-c2cc3c(Oc4cccc(O)c4)ncnc3[nH]2)c1: 42.6%
Ic1cccc(CSc2nnc(-c3ccncc3)o2)c1: 121%
c1ccc(-c2cnc(Nc3ccc(OCCN4CCCC4)cc3)s2)cc1: 129%
COc1cc2ncnc(Nc3cccc(Cl)c3)c2cc1OC: 94.5%
Cc1cc2ncc(-c3ccccc3)nc2cc1C: 130%
Cc1cn(-c2cc(NC(=O)c3ccc(C)c(Nc4nccc(-c5cccnc5)n4)c3)cc(C(F)(F)F)c2)cn1: 100%
Cn1nc2c3c(cccc31)C(=O)c1ccccc1-2: 94.9%
CCN(CC)CCNC(=O)c1c(C)[nH]c(/C=C2\C(=O)Nc3ccc(Cl)cc32)c1C: 113%
COc1cc2ncnc(Nc3ccc(O)c(Br)c3)c2cc1OC: 105%
O=C(Nc1cccc(Nc2nccc(Nc3cccc(C(F)(F)F)c3)n2)c1)C1CC1: 91.6%
CN(C)C[C@H]1CCn2c(c(C3=C(c4cn(C)c5ccccc45)C(=O)NC3=O)c3ccccc32)C1: 98.5%
CCN(CC)CCNC(=O)c1c(C)[nH]c(/C=C2\C(=O)Nc3ccc(F)cc32)c1C: 92.5%
N#C/C(=C\c1ccc(O)c(O)c1)C(=O)NCc1ccccc1: 111%
N#Cc1c(NC(=O)c2cccc3ccccc23)sc2c1CCCC2: 104%
O=c1cc(-c2cccc3c2Sc2ccccc2S3)oc(N2CCOCC2)c1: 93.4%
O=C1c2ccccc2-c2n[nH]c3cccc1c23: 105%
COc1cc2c(cc1OC)-c1[nH]nc(Nc3cccc(F)c3)c1C2: 100%
C[C@@H]1CCN(C(=O)CC#N)C[C@@H]1N(C)c1ncnc2[nH]ccc12: 98.8%
CCOc1nc(NC(=O)Cc2cc(OC)ccc2OC)cc(N)c1C#N: 104%
O=C(NC(NC(=S)Nc1ccc(F)c([N+](=O)[O-])c1)C(Cl)(Cl)Cl)C(c1ccccc1)c1ccccc1 (stereo not drawn): 91.6%
CCN(CC)C(=O)c1ccc(Nc2nc(OCC3CCCCC3)c3[nH]cnc3n2)cc1: 75.4%
CN([C@@H](Cc1ccc(OS(=O)(=O)c2cccc3cnccc23)cc1)C(=O)N1CCN(c2ccccc2)CC1)S(=O)(=O)c1cccc2cnccc12: 101%

Block 4 — observed: ligand displacement; concentration: 10 µM; measurement: inhibition
Target: D(3) dopamine receptor (DRD3, Homo sapiens, UniProt P35462)
Sequence of UniProt P35462 (whole entry, looked up): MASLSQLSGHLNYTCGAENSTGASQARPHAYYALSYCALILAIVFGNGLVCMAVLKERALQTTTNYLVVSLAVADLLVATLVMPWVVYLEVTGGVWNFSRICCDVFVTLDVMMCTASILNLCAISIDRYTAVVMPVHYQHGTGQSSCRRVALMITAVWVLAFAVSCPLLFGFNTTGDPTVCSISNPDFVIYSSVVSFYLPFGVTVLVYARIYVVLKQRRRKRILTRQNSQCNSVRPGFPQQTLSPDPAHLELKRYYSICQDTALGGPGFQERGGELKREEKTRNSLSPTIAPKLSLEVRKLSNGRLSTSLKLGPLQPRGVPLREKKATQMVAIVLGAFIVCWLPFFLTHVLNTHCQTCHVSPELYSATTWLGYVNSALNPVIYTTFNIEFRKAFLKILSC
Cc1ccc(-c2cnc([C@@]3(O)CC[C@H](C(=O)O)C(C)(C)C3)s2)cc1Nc1cccc(C(F)(F)F)n1: -8.44%
CNC(=O)Nc1ccc2c(c1)CC[C@]21OC(=O)N(CC(=O)N(Cc2ccc(F)cc2)[C@@H](C)C(F)(F)F)C1=O: 1.52%
O=C(NS(=O)(=O)c1ccc(NCC2CCOCC2)c([N+](=O)[O-])c1)c1ccc(N2CCN(Cc3ccc(C(F)(F)F)cc3-c3ccc(Cl)cc3)CC2)cc1Oc1cnc2[nH]ccc2c1: -74.3%
COc1ccc2cc(OCC3(C(=O)O)CN(C(=O)c4ccc(F)cc4)C3)ccc2c1: 33%
Nc1nc(NCc2ccccc2)nc(-c2cccc(CO)c2)n1: 8.38%
O=C(N[C@H]1CCCCC/C=C\C2C[C@@]2(C(=O)O)NC(=O)[C@@H]2C[C@@H](Oc3ccncc3)CN2C1=O)OC1CCCC1 (stereo partly drawn): 12.7%
Cc1ccccc1Oc1cc(-n2c(=O)cc(C(F)(F)F)[nH]c2=O)c2ccccc2c1Cl: 8.85%
CCc1ccccc1C(=O)Nc1n[nH]c2c(C)c(F)c(C3C(C#N)=C(C)N(C)C(C)=C3C#N)cc12: 10.4%
CCC(F)(F)c1cc(N2CCC(S(C)(=O)=O)CC2)nc2sc(C(N)=O)c(N)c12: 51.5%
Cn1cc(Cl)c2c(Oc3c(F)cc(Nc4cc(Cl)nc(N)n4)cc3F)ccnc21: -19.2%
Cc1noc([C@H]2C[C@@H](c3ccc(C(F)(F)F)cc3)CN(C(=O)N3CCS(=O)(=O)C3)C2)n1: -2.97%
c1ccc(N2CCN(Cc3nc4ccccc4[nH]3)CC2)nc1: 2.41%
C[C@H](c1ccc(F)cc1)N(Cc1cccc(C(=O)O)c1)C(=O)c1cnc2ccccc2c1: -8.16%
O=S(=O)(NC1CCC(c2cc(F)ccc2F)(S(=O)(=O)c2ccc(Cl)cc2)CC1)C(F)(F)F (stereo not drawn): 21.7%
NC(=O)c1ccc2nc(-c3ccc(C4(N)CCC4)cc3)c(-c3ccccc3)n2n1: 22.6%
O=C1NC(c2ccccn2)Sc2ccccc21 (stereo not drawn): 27.8%
c1ccc(C2CCN(c3cnc4c(N5CCOCC5)nccn34)CC2)cc1: -6.13%
CN(C)C(=O)c1sc2nc(N3CCC(S(C)(=O)=O)CC3)cc(C(F)(F)F)c2c1N: -12.5%
CC1CCN(c2ccnc(NCc3cn(C)cn3)n2)CC1: 47%
Cc1c(NC(=O)c2cc(C(N)=O)nc3cc(F)ccc23)c(C(F)(F)F)nn1Cc1ccc(C#N)cc1: 1.46%
C[C@@H]1CN(c2cc(-c3n[nH]c4ccc(OC5(C)CC5)cc34)ncn2)C[C@H](C)O1: -0.66%
Nc1nc(NCc2ccccc2)nc(-c2ccccc2CO)n1: 18.9%
NS(=O)(=O)c1cc(NC(=O)Cc2ccccc2)ccc1Oc1cccc(Cl)c1: 0.87%
Cn1nc(C(=O)NCc2ccc(C(=O)O)cc2)cc1-c1ccc2[nH]ccc2c1: 1.67%
O=c1nc(-c2ccccn2)sc2ccccc12: 13.6%

Excerpt of the above (block 2):
parasite killing; intracellular amastigotes; 20 µM, 48 h: 100%
parasite killing; intracellular amastigotes; 0.2 µM, 96 h: 33% and 22% and 24%
parasite killing; promastigotes; 66.66 µM, 72 h: 100% and 99%
parasite killing; promastigotes; 0.66 µM, 96 h: 59% and 52% and 60%
parasite killing; promastigotes; 3.33 µM, 72 h: 87% and 93% and 90%
parasite killing; intracellular amastigotes; 0.08 µM, 96 h: 19% and 16%
parasite viability, resazurin; promastigotes; 1.66 µM: 81% and 84% and 80%
parasite killing; intracellular amastigotes; 8 µM, 24 h: 62% and 64% and 70%
parasite killing; intracellular amastigotes; 0.4 µM, 72 h: 48% and 47% and 41%
